Measurements from different studies.
Parts stem from different laboratories: compare values within a part only. Substitutions count along the parent as printed.

Study 1
Target: RNA binding protein fox-1 homolog 2, RRM domain, GST-SBP tag (RBFOX2, Homo sapiens, UniProt O43251-10, residues 100-194)
Method: RNA Bind-n-Seq
Form: RNA
Sample: in vitro
Tested at: 365 nM
Setting: natural RNA segment, single round, ends assumed
Baseline: no-protein control
Direction: higher = stronger binding
Constant ends, left off below: GGGAGUUCUACAGUCCGACGAUC … UGGAAUUCUCGGGUGCCAA
Construct (chain): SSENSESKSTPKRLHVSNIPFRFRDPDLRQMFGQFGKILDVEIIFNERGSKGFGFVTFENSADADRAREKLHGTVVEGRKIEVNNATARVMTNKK
Sequence | RBNS enrichment (R)
UACUUCCUGACUGUGCCAGGGCUUGGGUUCCCCACCACCUCCUCAAUGGAGCAAAGACUCCUGCUAGGCCCUGGUCUCCCUGGGGUUUAUCCCUCCUGGGUCAUGGGAAA | 0.271
GGGCAAAGGGGGAAAAGAAUGCCGUAGGGGACCACACCUAAGGGACCAAAAGAUACCCACUGUCACUGAAGCAUUGUACCCCUAACCUCUGUCUCCAUACCUUCCUCUCC | 0.569
UUUUGUUGUGCUUUUUUGUAACUGUUUUAAAUAAAUCAAUUUGUACUGUAUAUUUGUACUUUUGUGAGAUCCUUUUUGCUGUUUUACCAUUUUAAGUCUCUGUACUUGGC | 0.815
GUCUCUAGUCCUAACUUUUAAAGAUCUAAGGUUCCUUGGAAGUUAUUUGAAGGCCAAGAGACCUUUGCUCUGCUGUGUGAGUCAGCCAGUCAAAAGCCCAGAAAGGCAAA | 0.343
UGGUUCUCUUGAGCUGGUGUCACUUUCUAACCUUUGCCAGUCUAGCCCCAGCAGGGCACCGUGUGUGUGAGUGUGGUUUGGUGCUGUUUUGGAGUGUGCCUGCCCCCCAG | 0.617
CUAUGUAAUGUACAGAUACUAGCAUUGCGCAUAUAGUCUGCUUUCUGUUCCUCCAGAAUUUGAGUCCUGUUAAUGUAGUGGCAAAGAAGAAAGUUUCUUUUUCUUUUGUG | 0.931
UGUUGUUUUGUUGUUUUACUAUAUGUAAUACAAGCCUACAGUAUUUGCACUAAAGAAAGCUUGUUAGAAAAAGCUUGCUGCUAUGGAAGAAAGAACAUAUUAAAACUUCU | 0.45
AAGAGUCUAACUCCCUCCUCCCUAGGGAUUCCUACCCCACAAAGGUCUCAUGGACCAUAGAACUCACAGUACCUGGAUCUGCCCAGCAUGCCCUUUGGACCCAGUUCCCA | 5.62
GGAGACAGCUGGCCAGAAUCGUAUAUGCUGGUUUUAUAACUGUUUUAUUAUUAAAGAGAAGAAAACCAACAAAAACUUGUUUGCUUCUGAUUUUUCUUAAAUUGACAUAU | 0.515
UUCAGCGGAAGGCCUCACCACCCACAGUGUGAUCCUGAGGUGCCGCCAUUGGCGGUUCUGCUGCUUCGCUGCAGGGAUAAGGUGGAGCUACCGAACAGCUGAUUCAUAUG | 0.227
UGUUUUGUUUUCCUCCCUUUUCUCUUGAAUUUUAGCAUCCACAUAAAUUAUGCUUCCAACCUUGUAUAGGUUUGUAAGCUUGCCCAGAAGUGAGACCACUGUUGAAGUAC | 0.433
ACUUGGGGAGGAAGAGGCCUGCUGUGGGGGCAUCGGAGCCAGCCAUGUAAGAAUCAGAGCUGCUCCUUCCUGUGAAUCCUAGGUGGCCCUAUGUCUUCUGUGGAGUUACA | 0.352

Study 2
Target: TAR DNA-binding protein 43, full length, His tag (TARDBP, Homo sapiens, UniProt Q13148, residues 1-414)
Method: RNA Bind-n-Seq
Form: RNA
Sample: in vitro
Tested at: 20 nM
Setting: 6-mer, flanks averaged, single round
Added: 150 mM LiCl
Baseline: input library
Direction: higher = stronger binding
Sequence | 6-mer enrichment (R)
UACUGG | 0.916
UAAUCG | 0.861
UAAAGC | 0.858
AGUCGG | 1.07
GAUCUA | 0.836
GCUGCG | 1.03
UAGGGA | 1.04
ACCUGC | 0.891
CUCCAC | 0.924
UGAACA | 0.866
AUGUUU | 1.38
GGGGUU | 1.25
UCAGAU | 0.8
UUAUGG | 1.12
ACAUGC | 0.866
UCUUAC | 0.877
CCGUCU | 0.872
CCGGCU | 0.905

Study 3
Target: Interferon regulatory factor 7, full length, phosphomimetic (IRF7, Homo sapiens, UniProt Q92985, residues 1-503, S101K/S471D/S472D/S475D/S476D/S477D/S483D/S484D/S487D)
Chain of UniProt Q92985 (whole entry, unmodified, looked up): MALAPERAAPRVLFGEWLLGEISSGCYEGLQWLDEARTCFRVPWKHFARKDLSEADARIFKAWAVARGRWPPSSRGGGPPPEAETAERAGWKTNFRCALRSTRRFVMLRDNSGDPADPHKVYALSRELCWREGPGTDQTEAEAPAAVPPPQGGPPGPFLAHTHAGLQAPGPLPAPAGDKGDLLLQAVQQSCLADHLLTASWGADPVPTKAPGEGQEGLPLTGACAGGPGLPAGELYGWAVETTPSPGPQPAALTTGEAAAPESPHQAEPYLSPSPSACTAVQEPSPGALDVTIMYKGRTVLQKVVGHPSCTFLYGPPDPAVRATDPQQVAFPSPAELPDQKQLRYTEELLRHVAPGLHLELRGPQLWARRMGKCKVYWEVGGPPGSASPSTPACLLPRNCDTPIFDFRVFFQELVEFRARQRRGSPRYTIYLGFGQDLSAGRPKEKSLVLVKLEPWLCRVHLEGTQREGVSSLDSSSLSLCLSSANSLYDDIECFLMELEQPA
Method: protein-binding microarray
Form: double-stranded DNA, one strand shown
Sample: in vitro
Tested at: 250 nM
Setting: 60-bp whole probe
Added: salmon DNA 0.4 mg/ml
Baseline: random background probes
Direction: higher = stronger binding
Constant ends, left off below: GCCTAGCAC … GTCTTGATTCGCTTGACGCTGCTG
Sequence | log fluorescence
TTAGGACTGCTTCTCGTTTAGTGCTAG | 1.09 z-score
AACGGACTGGGGACTGGGGACGTGCTA | -0.346 z-score
AGAATCTTAGATATTAAACTGTGCTAG | -0.0521 z-score
TTAGGTATCGGGACTGGATTAGTGCTA | 0.21 z-score
TTAGGTTTGCTTTTCCTTTAGTGCTAG | 1.58 z-score
GACAGTCTCGGTATCGGGACGTGCTAG | 2.05 z-score
GACGGTATCCTACTGCTCACGTGCTAG | -0.193 z-score
GACGAACTGAGGTTTCGAGACGTGCTA | 2.99 z-score
TTGGATTTCAGTATCGATTAGTGCTAG | 0.879 z-score
GACGATATCGGGACTGGTGACGTGCTA | -0.365 z-score

Study 4
Target: CCNA1, cyclin fold, Cln2 fusion (human)
Method: yeast growth competition, sequencing
Sample: yeast
Setting: strong parent motif
Baseline: not given
Direction: higher = stronger binding
Starting sequence: RBL2 docking peptide (human); STTRRRLFVENDS; partner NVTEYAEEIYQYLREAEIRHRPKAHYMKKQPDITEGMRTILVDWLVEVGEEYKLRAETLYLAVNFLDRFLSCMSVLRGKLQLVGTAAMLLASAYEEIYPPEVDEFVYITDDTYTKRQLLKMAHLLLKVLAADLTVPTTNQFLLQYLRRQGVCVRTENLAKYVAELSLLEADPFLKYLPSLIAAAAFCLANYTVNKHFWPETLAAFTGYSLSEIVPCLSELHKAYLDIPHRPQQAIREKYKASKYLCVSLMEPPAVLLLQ
Substitution | normalised enrichment score
STTRRRPFVENDS [L7P] | 0.443
STTRNRLFVENDS [R5N] | 0.306
STTRKRLFVENDS [R5K] | 0.655
SNTRRRLFVENDS [T2N] | 0.543
STTRRRLFVQNDS [E10Q] | 0.306
STTRRLLFVENDS [R6L] | 0.628
VTTRRRLFVENDS [S1V] | 0.618
STTMRRLFVENDS [R4M] | 0.0975
MTTRRRLFVENDS [S1M] | 0.581
STTRRRLFNENDS [V9N] | 0.997
STTRRRCFVENDS [L7C] | 0.465
STTRRHLFVENDS [R6H] | 0.239
ETTRRRLFVENDS [S1E] | 0.108
KTTRRRLFVENDS [S1K] | 0.777
STIRRRLFVENDS [T3I] | 0.498
STTRRRLFVEHDS [N11H] | 0.27
SHTRRRLFVENDS [T2H] | 0.555
STKRRRLFVENDS [T3K] | 0.0807
SETRRRLFVENDS [T2E] | 0.62
CTTRRRLFVENDS [S1C] | 0.82
STTRRRLFVENDK [S13K] | 0.715
STTRRRLFVYNDS [E10Y] | 0.207
STTRRRDFVENDS [L7D] | 0.485
STGRRRLFVENDS [T3G] | 0.562

Study 5
Target: ABI1, truncated, D143A, DHFR fusion (Arabidopsis thaliana)
Method: DHFR PCA, deep sequencing
Sample: yeast
Setting: methotrexate growth selection, single substitutions
Added: (+)-ABA 58 µM
Baseline: wild-type fitted maximum
Direction: higher = stronger binding
Starting sequence: PYL1, truncated, DHFR fusion (Arabidopsis thaliana); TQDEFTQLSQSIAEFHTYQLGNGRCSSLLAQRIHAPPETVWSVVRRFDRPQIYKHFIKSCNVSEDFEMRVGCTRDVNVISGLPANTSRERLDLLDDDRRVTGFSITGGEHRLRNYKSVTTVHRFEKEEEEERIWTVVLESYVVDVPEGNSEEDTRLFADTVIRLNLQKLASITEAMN; partner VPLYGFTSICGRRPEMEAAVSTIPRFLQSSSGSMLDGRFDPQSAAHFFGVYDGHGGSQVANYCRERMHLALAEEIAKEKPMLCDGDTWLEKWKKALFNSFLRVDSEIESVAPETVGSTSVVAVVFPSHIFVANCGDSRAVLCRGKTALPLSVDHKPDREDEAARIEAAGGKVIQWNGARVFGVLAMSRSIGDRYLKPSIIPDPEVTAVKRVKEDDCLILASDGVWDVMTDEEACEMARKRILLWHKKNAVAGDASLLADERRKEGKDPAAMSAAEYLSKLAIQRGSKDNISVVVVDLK
Substitution | relative binding score [%]
Q31C | 36.8
K168S | 86.5
R46F | 3.33
T154S | 29.5
G108Q | 6.85
L82E | -0.234
V121I | 82.9
M176E | 81
K168H | 80.1
V121H | -9.53
P37G | 21.6
M176K | 87.2
L166M | 69.2

Study 6
Target: Sal-like protein 4, full length isoform A (SALL4, Homo sapiens, UniProt Q9UJQ4, residues 1-1053)
Chain of UniProt Q9UJQ4 (whole entry, looked up): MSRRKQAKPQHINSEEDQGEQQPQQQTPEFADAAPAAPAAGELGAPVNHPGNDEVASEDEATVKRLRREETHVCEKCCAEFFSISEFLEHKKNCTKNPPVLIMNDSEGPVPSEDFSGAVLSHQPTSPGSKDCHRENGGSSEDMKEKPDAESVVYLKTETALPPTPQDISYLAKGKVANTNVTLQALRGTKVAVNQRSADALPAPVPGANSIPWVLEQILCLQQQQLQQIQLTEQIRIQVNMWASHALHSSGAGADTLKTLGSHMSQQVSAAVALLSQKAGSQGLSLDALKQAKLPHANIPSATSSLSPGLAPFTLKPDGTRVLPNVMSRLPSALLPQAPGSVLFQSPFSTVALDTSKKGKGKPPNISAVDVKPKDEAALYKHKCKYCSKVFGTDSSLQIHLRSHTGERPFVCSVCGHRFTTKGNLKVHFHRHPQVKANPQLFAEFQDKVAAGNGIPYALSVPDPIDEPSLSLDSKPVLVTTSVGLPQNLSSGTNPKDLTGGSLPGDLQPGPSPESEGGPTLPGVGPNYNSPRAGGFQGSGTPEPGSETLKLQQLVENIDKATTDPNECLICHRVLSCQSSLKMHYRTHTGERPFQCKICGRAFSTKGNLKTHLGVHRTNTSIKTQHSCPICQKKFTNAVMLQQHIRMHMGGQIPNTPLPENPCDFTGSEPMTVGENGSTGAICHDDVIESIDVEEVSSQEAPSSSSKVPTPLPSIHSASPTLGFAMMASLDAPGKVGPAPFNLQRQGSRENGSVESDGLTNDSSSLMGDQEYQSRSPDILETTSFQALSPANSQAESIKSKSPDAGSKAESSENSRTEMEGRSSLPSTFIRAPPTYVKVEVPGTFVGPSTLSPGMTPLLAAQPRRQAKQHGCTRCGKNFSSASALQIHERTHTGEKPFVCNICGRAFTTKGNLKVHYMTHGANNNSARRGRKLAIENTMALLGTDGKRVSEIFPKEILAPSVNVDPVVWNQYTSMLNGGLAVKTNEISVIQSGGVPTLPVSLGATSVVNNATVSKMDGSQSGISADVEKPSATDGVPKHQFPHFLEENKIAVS
Method: universal PBM
Form: double-stranded DNA, one strand shown
Sample: in vitro
Tested at: 600 nM
Setting: 8-mer, flanks averaged, mean of replicates
Direction: higher = stronger binding
Sequence | E-score
AGAGCCAC | -0.0929
ACGGACGT | -0.13
CAAATGCG | -0.00468
CGGGTTTC | -0.279
CAAAACAG | 0.102
GATTGAGC | 0.0333
AGCTAGCG | -0.281
ACATACCA | 0.0875
CAACGCCA | -0.151
ACACGATG | -0.00396
CAAAGTGC | -0.142
ACTCGAAG | -0.0621
ATCCGGGG | -0.135
CGATGGAC | -0.075
ACTATGAA | 0.321
ACATGAGA | 0.242
ACGACGAG | 0.00039

Study 7
Target: POU domain, class 6, transcription factor 1, POU and homeodomain (POU6F1, Homo sapiens, UniProt Q14863, residues 311-611)
Method: protein-binding microarray
Form: hairpin DNA
Sample: in vitro
Tested at: not given
Setting: whole hairpin DNA, median over replicate spots
Baseline: not given
Direction: higher = stronger binding
Constant ends, left off below: GAGGCC … GGCCTCACACTCTT
Construct (chain): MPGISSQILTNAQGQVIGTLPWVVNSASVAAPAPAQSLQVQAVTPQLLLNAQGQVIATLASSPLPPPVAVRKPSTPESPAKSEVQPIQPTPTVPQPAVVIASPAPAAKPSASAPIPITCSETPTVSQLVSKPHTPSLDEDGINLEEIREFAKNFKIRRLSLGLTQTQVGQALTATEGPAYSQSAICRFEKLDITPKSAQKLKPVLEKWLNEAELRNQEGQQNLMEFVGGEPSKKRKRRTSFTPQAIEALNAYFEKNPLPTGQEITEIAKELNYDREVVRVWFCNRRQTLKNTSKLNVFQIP
Sequence | median fluorescence
ATAAGTAGGTGCCTCCTGGCACCTACTTAT | 902 a.u.
ATAATTCGGTGCCTCCTGGCACCGAATTAT (5mC at 13) | 513 a.u.
CGAATGAGGTGCCTCCTGGCACCTCATTCG (5mC at 7) | 386 a.u.
ATAATTACGTGCCTCCTGGCACGTAATTAT (5mC at 28) | 1070 a.u.
ATAACTAGGTGCCTCCTGGCACCTAGTTAT (5mC at 11) | 622 a.u.
ATAATGAGCTGCCTCCTGGCAGCTCATTAT | 3250 a.u.
ATAATGGGGTGCCTCCTGGCACCCCATTAT | 573 a.u.
ATCGTGAGGTGCCTCCTGGCACCTCACGAT (5mC at 33) | 324 a.u.
ATAATGAGCGGCCTCCTGGCCGCTCATTAT (5mC at 15 27) | 2670 a.u.
ATCGTGAGGTGCCTCCTGGCACCTCACGAT (5mC at 9 33) | 322 a.u.
ATAATTAGGTGCCTCCTGGCACCTAATTAT (5mC at 29) | 1340 a.u.
ATACGGAGGTGCCTCCTGGCACCTCCGTAT (5mC at 32) | 346 a.u.
ATAATTCGGTGCCTCCTGGCACCGAATTAT (5mC at 29) | 578 a.u.
AGAATGAGGTGCCTCCTGGCACCTCATTCT | 434 a.u.
